# Results pooled from the literature.
# Compare with care: the assays were run in different laboratories. ± marks the error that the study gave.
Structure (SMILES),cell line,test,conditions,IC50
NC(=S)NNC(=O)c1cc2ccc(O)cc2oc1=O,EA.hy 926,"cell growth or viability, SRB",72 h,26.6 µM
Cc1ccc(-n2cc(CSc3nc4ccccc4n3Cc3cn(-c4ccc(C)cc4)nn3)nn2)cc1,HEK293,"cell growth or viability, MTT",,77.6 µg/mL
Cc1c(OCc2ccccc2)c(=O)ccn1CCCOC(=O)c1ccccc1Cl,fibroblast cells,"cell viability, MTT",48 h,26 µg/mL
CCC(CC)c1nc(-c2ccc(O)cc2O)cs1,HPNE,"cell growth or viability, resazurin",72 h,6.54 µM
COc1cc(C(=O)N2CC[C@@H](O)[C@@H](N)C2)cc2nc(-c3cc4cccnc4n3CC3CC3)n(C)c12,human neutrophils,"protein citrullination, flow cytometry, refers to: citrullinated histone H3",added: ionomycin 5 µM,1.1 µM
O=C(/C=C/c1ccc(O)c(O)c1)c1ccc(O)cc1O,human cells,"NF-κB reporter gene, inhibitor",added: TNF-alpha,38 µM
COc1cc(N2CCN(C)CC2)ccc1Nc1ncc2c(n1)N(C)c1ccc(C)cc1C(=O)N2CC(F)(F)F,PaTu 8902,cell growth or viability,5 days,> 20 µM
COc1c(OCCCCN2CCCC2)cc(O)c2c(=O)cc(-c3ccccc3)oc12,KBM5-T315I,"cell growth, CCK-8",12 h,5.88 ± 1.67 µM
COc1cc2c(cc1C(C)(C)O)CCC1C(C)(C)c3nc(C)ncc3C[C@]21C (mixture of isomers),HAF fibroblasts,"cell growth, SRB",24 h,112 µM
CC1(C)CCCC(C)(C2CCC3(C)C2C(O)CC2C4(C)CCC(O)C(C)(C)C4C(OC(=O)Nc4ccccc4)CC23C)O1 (stereo not drawn),Hep3B,"HRE reporter gene, inhibitor","24 h, hypoxia",5.47 ± 0.11 µM
[Cl][Pt-]1([Cl])[S]C(Nc2ccccc2)=N[N+]1=Cc1cccs1,MDCK,cell proliferation,,10.8 µM
Cn1cnc(Cn2ccc3ccc(CNCc4[nH]c5ccccc5c4C4NC(=O)c5ccc(O)cc54)cc32)c1 (stereo not drawn),NCI-H358,"cell growth or viability, ATP luminescence",72 h,> 30 µM
C#CCOc1ccc(C(=O)c2ccc(NC(=O)C(=O)NCCc3ccc(OC)cc3)cc2)cc1,NSCLC cell lines,cell viability,seven other cell lines,> 10 µM
CCCc1nc2ccccn2c1Nc1ccc(C(=O)NO)cc1,CAL-27,"cell growth or viability, MTT",,3.87 µM
CC[C@H](C(=O)N1CCCC[C@@H]1C(=O)O[C@H](CCc1ccc(OC)c(OC)c1)c1cccc(OCC(=O)NCCOCCOCCN(C)C/C=C/C(=O)Nc2cc3c(Nc4ccc(F)c(Cl)c4)ncnc3cc2OC)c1)c1cc(OC)c(OC)c(OC)c1,NCI-H1975 expressing FKBP12F36V-PTPN2,"cell viability, CellTiter-Glo",6 days,2.58 µM
Cc1ccc(C(c2c[nH]c3ccccc23)c2c[nH]c3ccccc23)cc1,B16,"cell growth or viability, MTT",24 h,13.4 µM
CC(C)[C@@H]1CC[C@@H](C)C[C@H]1OC(=O)Cn1c(-c2cccc(C(F)(F)F)c2)[n+](C)c2ccccc21,HTS,"cell growth or viability, ATP luminescence",96 h,0.47 µM
O=C(/C=C(O)/C=C/c1cccs1)/C=C/c1cccs1,EA.hy 926,"cell growth or viability, SRB",72 h,59.9 µM
CC1=C2[O][Ru-]([Cl])[O+]=C2C=CN1CCCN1C=CC2=[O+][Ru-]([Cl])[O]C2=C1C.Cc1ccc(C(C)C)cc1.Cc1ccc(C(C)C)cc1,RT-4,"cell growth or viability, crystal violet",96 h,> 20 µM
COc1cc(CN2CCN(c3ccc(Cl)cc3)CC2)c2cc3[n+](cc2c1O)CCc1cc2c(cc1-3)OCO2,Ca-Ski,"cell growth or viability, SRB",48 h,6.98 µg/mL
CN(C)CCCO/N=C1/C=C2CCC3C(CC[C@]4(C)/C(=C/c5ccccn5)CCC34)[C@@]2(C)CC1 (stereo partly drawn),CEM,"cytotoxicity, alamarBlue",72 h,13.9 µM
COc1cc(CN2CCN(c3ccccc3F)CC2)c2cc3[n+](cc2c1O)CCc1cc2c(cc1-3)OCO2,Ca-Ski,"cell growth or viability, SRB",48 h,4.62 µg/mL
CCCC[C@@H]1NC(=O)CN(S(C)(=O)=O)CCNC(=O)[C@H](CCCCN)NC(=O)[C@H](CC(C)C)NC(=O)[C@H](CCCCN)NC(=O)[C@H](CC(C)C)NC(=O)[C@H](CCCCN)NC(=O)CN(S(C)(=O)=O)CCNC(=O)[C@H](Cc2c[nH]c3ccccc23)NC(=O)[C@H](Cc2ccc(O)cc2)NC(=O)[C@H](C(C)C)NC(=O)[C@H](C(C)C)NC1=O,NCI-H929,"viability, TO-PRO-3 staining, flow cytometry",,2.9 µM
CC(C)Cc1ccc(C(C)C(=O)N/N=C/c2ccc(OCC(=O)N/N=C/c3cccc(O)c3)cc2)cc1 (stereo not drawn),U87 MG,"cytotoxicity, MTT",,62.89 ± 0.15 µM
C=CC(=O)N1C[C@H](C)N(c2nc(OC[C@@]34CCCN3C[C@H](F)C4)nc3c(F)c(-c4ccc(F)c5sc(N)c(C#N)c45)c(C(F)(F)F)cc23)C[C@H]1C,NRAS wild-type-driven mouse embryonic fibroblasts,refers to: pERK,,> 10 µM
CC1(C)CCCC(C)(C2CCC3(C)C2C(O)CC2C4(C)CCC(OC(=O)/C=C\c5ccccc5)C(C)(C)C4C(O)CC23C)O1 (stereo not drawn),Hep3B,"HRE reporter gene, inhibitor","24 h, hypoxia",> 30 µM
CSCC[C@@H]1NC(=O)CN(S(C)(=O)=O)CCNC(=O)[C@H](CCCCN)NC(=O)[C@H](CC(C)C)NC(=O)[C@H](CCCCN)NC(=O)[C@H](CC(C)C)NC(=O)[C@H](CCCCN)NC(=O)CN(S(C)(=O)=O)CCNC(=O)[C@H](C)NC(=O)[C@H](CO)NC(=O)[C@H](C(C)C)NC(=O)[C@H](C(C)C)NC1=O,NCI-H929,"viability, TO-PRO-3 staining, flow cytometry",,57.1 µM
O=C1/C(=C(\O)CCc2ccccc2)C(=O)[C@@]2(C(=O)OCc3ccccc3)CS[C@H](c3ccccc3)N12,MDCK,"cell growth or viability, resazurin",,31.3 µg/mL
CCC(C)C1OC(=O)C(C)(C)C(=O)C(Cc2ccccc2)OC(=O)C(C(C)C)OC(=O)C(NC(=O)c2cccc(O)c2)C(C)OC1=O (stereo not drawn),SGC-7901/DDP cisplatin-resistant,"cell viability, CCK-8",72 h,> 20 µM
COc1ccc(-n2cc(C(=O)OC3CC4(C)C(CC(O)C5C(C6(C)CCCC(C)(C)O6)CCC54C)C4(C)CCC(OC(=O)c5cn(-c6ccc(OC)cc6)nn5)C(C)(C)C34)nn2)cc1 (stereo not drawn),Hep3B,"HRE reporter gene, inhibitor","24 h, hypoxia",> 30 µM
O=C(OCc1cccc(O)c1O)c1ccc(O)c(CO)c1,COS-phox cells,"superoxide production, lucigenin chemiluminescence",added: PMA,0.24 µM
C=CC(OC(C)=O)c1ccccc1 (stereo not drawn),HMEC,MTT,24 h,> 50 µM
CC(=O)OC1C(=O)C2(C)C(O)CC3OCC3(OC(C)=O)C2C(OC(=O)c2ccccc2)C2(O)CC(OC(=O)C(OC(=O)OC3C=CCCC(C)(C(=O)NCC(=O)O)CC3)C(NC(=O)c3ccccc3)c3ccccc3)C(C)=C1C2(C)C (stereo not drawn),MC-38,"cell growth or viability, MTT",24 h,0.08 µM
COc1cc(OC)c(-c2coc3c(CC=C(C)C)c(OC)cc(O)c3c2=O)cc1OC,Huh-7,"cell growth or viability, MTT",24 h,> 100 µM
CC1(C)CCCC(C)(C2CCC3(C)C2C(O)CC2C4(C)CCC(OC(=O)CN)C(C)(C)C4C(O)CC23C)O1 (stereo not drawn),Hep3B,"HRE reporter gene, inhibitor","24 h, hypoxia",2.81 ± 0.09 µM
COc1ccc(-c2ocnc2-c2cc(Br)c(OC)c(OC)c2)cc1OCCCC(=O)NO,Huh-7,"cell growth or viability, crystal violet",48 h,0.6 µM
